Measured values pooled from the literature.
Protocols differ between the studies behind these lines. ± marks the error that the study gave.
Organism: HIV-1

`CC(=O)N[C@@H](CS)C(=O)N[C@@H](CO)C(=O)N[C@@H](CO)C(=O)N[C@@H](Cc1ccc(O)cc1)C(=O)N[C@@H](Cc1ccc(O)cc1)C(=O)N1CCC[C@H]1C(=O)N[C@@H](Cc1c[nH]c2ccccc12)C(=O)N[C@@H](CO)C(=O)N[C@@H](CCC(N)=O)C(=O)N[C@@H](Cc1ccc(O)cc1)C(=O)N[C@@H](CCC(N)=O)C(=O)N[C@@H](Cc1c[nH]c2ccccc12)C(=O)N[C@@H](Cc1c[nH]c2ccccc12)C(=O)N[C@@H](CCCCN)C(N)=O` gave an IC50 of 2100 nM (viral entry; TZM-bl, YU2 (R5) pseudovirus; 48 h).
`CC(=O)[O-].F[P-](F)(F)(F)(F)F.[Ni+2].c1ccc(CN2CCN3CCN(CC2)CCN(Cc2ccccc2)CC3)cc1` gave an IC50 of 590 nM (viral replication; MT-4, IIIB; 5 d).
With `CC(C)CN(C[C@@H](O)[C@H](Cc1ccccc1)NC(=O)O[C@H]1C2CO[C@H]3OC[C@@H]1C3C2)S(=O)(=O)c1ccc2nc(NC3CC3)sc2c1` (stereo partly drawn) the IC50 was 0.26 ± 0.03 nM (viral replication, p24; MT-4, NL4-3 wild type).
The IC50 of `CC(=O)N[C@@H](CC(C)C)C(=O)N[C@@H](CS)C(=O)N[C@@H](CC(=O)O)C(=O)N[C@@H](CS)C(=O)N1CCC[C@H]1C(=O)N[C@@H](CC(N)=O)C(=O)NCC(=O)N1CCC[C@H]1C(=O)N[C@@H](Cc1c[nH]c2ccccc12)C(=O)N[C@H](C(=O)N[C@@H](Cc1c[nH]c2ccccc12)C(=O)N[C@H](C(=O)N1CCC[C@H]1C(=O)N[C@@H](C)C(=O)N[C@@H](Cc1ccccc1)C(=O)N[C@@H](CO)C(=O)N[C@@H](CCC(N)=O)C(=O)N[C@@H](C)C(=O)N[C@H](C(=O)NCC(=O)O)C(C)C)C(C)C)C(C)C` is reported as greater than 60000 nM (viral replication, inhibitor, SEAP reporter; CEMx174 SEAP reporter, NL4-3; 3 days).
For `CC(=O)[O-].CN1CCN2CCN(CC1)CCN(Cc1ccccc1)CC2.F[P-](F)(F)(F)(F)F.[Ni+2]`, the IC50 was 550 nM (viral replication; MT-4, IIIB; 5 d).
For `COc1ccc2c(c1)OCCCC=CCCCCN(CC(O)C(Cc1ccccc1)NC(=O)OC1COC3OCCC13)S2(=O)=O` (mixture of isomers), the IC50 was 210 ± 32 nM (viral replication; PHA-stimulated PBMC, MDR/JSL R5).
`CC[C@H](C)[C@H](N)C(=O)N[C@@H](CO)C(=O)N[C@@H](Cc1ccccc1)C(=O)N[C@@H]1CSCc2ccc(cc2)-c2ccc(cc2)CSC[C@@H](C(=O)N[C@@H](CCC(=O)O)C(=O)N[C@@H](CO)C(=O)NCC(=O)N[C@@H](CO)C(N)=O)NC(=O)[C@H](Cc2ccc(O)cc2)NC(=O)[C@H](Cc2ccc(O)cc2)NC(=O)[C@H](CC(=O)O)NC(=O)[C@H](CC(C)C)NC(=O)[C@H](CC(C)C)NC(=O)[C@H](CCC(=O)O)NC1=O` gave an IC50 of 3700 ± 600 nM (viral entry, single-cycle pseudovirus; Env SC422661 clone B, subtype B).
The IC50 of `CC(C)C[C@@H](N)C(=O)NCC(=O)N[C@H](C)C(=O)N[C@H](CO)C(=O)N[C@H](Cc1c[nH]c2ccccc12)C(=O)N[C@H](Cc1c[nH]cn1)C(=O)N[C@H](CCCNC(=N)N)C(=O)N1CCC[C@@H]1C(=O)N[C@H](CC(=O)O)C(=O)N[C@H](CCCCN)C(=O)N[C@H](CCCCN)C(=O)N[C@H](CCCNC(=N)N)C(=O)NCCCCCC(=O)N[C@@H](CCCCN)C(=O)N[C@@H](CCCNC(=N)N)C(=O)N[C@@H](CCCCN)C(=O)N[C@H](C(=O)N[C@@H](CC(N)=O)C(=O)N[C@@H](CC(N)=O)C(=O)N[C@@H](CC(N)=O)C(=O)N1CCC[C@H]1C(=O)N[C@@H](CCCNC(=N)N)C(=O)N[C@H](C(=O)N[C@@H](CS)C(N)=O)[C@@H](C)O)[C@@H](C)O` is reported as 93 nM (viral replication, measured: p24 antigen; PBMC, NL4-3 (X4); 5 d).
With `CC(C)C[C@@H](N)C(=O)NCC(=O)N[C@H](C)C(=O)N[C@H](CO)C(=O)N[C@H](Cc1c[nH]c2ccccc12)C(=O)N[C@H](Cc1c[nH]cn1)C(=O)N[C@H](CCCNC(=N)N)C(=O)N1CCC[C@@H]1C(=O)N[C@H](CC(=O)O)C(=O)N[C@H](CCCCN)C(=O)N[C@H](CS)C(=O)N[C@H](CS)C(=O)N[C@H](CC(C)C)C(=O)NCC(=O)N[C@H](Cc1ccc(O)cc1)C(=O)N[C@H](CCC(N)=O)C(=O)N[C@H](CCCCN)C(=O)N[C@H](CCCNC(=N)N)C(=O)N1CCC[C@@H]1C(=O)N[C@H](CC(C)C)C(=O)N1CCC[C@@H]1C(N)=O` the IC50 was 24000 nM (single-cycle infectivity, p24 immunoperoxidase focus; HeLa cells expressing CD4, HXBc2; 48 h).

Excerpt of the above:
`CC(=O)N[C@@H](CS)C(=O)N[C@@H](CO)C(=O)N[C@@H](CO)C(=O)N[C@@H](Cc1ccc(O)cc1)C(=O)N[C@@H](Cc1ccc(O)cc1)C(=O)N1CCC[C@H]1C(=O)N[C@@H](Cc1c[nH]c2ccccc12)C(=O)N[C@@H](CO)C(=O)N[C@@H](CCC(N)=O)C(=O)N[C@@H](Cc1ccc(O)cc1)C(=O)N[C@@H](CCC(N)=O)C(=O)N[C@@H](Cc1c[nH]c2ccccc12)C(=O)N[C@@H](Cc1c[nH]c2ccccc12)C(=O)N[C@@H](CCCCN)C(N)=O` gave an IC50 of 2100 nM (viral entry; TZM-bl, YU2 (R5) pseudovirus; 48 h).
With `CC(C)CN(C[C@@H](O)[C@H](Cc1ccccc1)NC(=O)O[C@H]1C2CO[C@H]3OC[C@@H]1C3C2)S(=O)(=O)c1ccc2nc(NC3CC3)sc2c1` (stereo partly drawn) the IC50 was 0.26 ± 0.03 nM (viral replication, p24; MT-4, NL4-3 wild type).
